Experimental data of several laboratories.
Numbered parts are unrelated; each lists some results of a single study.

Sample 1 — method: protein-binding microarray; form: double-stranded DNA, one strand shown; matrix: in vitro; tested at: 0.8 µM; notes: whole 60-bp probe, no competitor; direction: higher = stronger binding; shared flanks, not repeated: … GTCTTGATTCGCTTGACGCTGCTG
Target: Centromere-binding protein 1, full length, N-terminal tag (CBF1, Saccharomyces cerevisiae, UniProt P17106, residues 1-351)
Chain of UniProt P17106 (whole entry, looked up): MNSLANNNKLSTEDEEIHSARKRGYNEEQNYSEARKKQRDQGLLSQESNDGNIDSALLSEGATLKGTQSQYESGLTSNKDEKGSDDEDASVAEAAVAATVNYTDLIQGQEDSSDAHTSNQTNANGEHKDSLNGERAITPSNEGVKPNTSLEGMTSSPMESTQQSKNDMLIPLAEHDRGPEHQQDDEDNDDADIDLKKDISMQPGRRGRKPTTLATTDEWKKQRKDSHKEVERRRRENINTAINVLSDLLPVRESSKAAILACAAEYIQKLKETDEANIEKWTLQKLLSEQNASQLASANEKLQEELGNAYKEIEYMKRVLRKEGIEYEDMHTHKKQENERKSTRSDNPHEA
Sequence	fluorescence intensity [a.u.]
CTAGATATGCTTGCCCTTACATCAGAATTACCATTC	521
CTAAGACGTATAAAAAACGTGAAGGGTGAAGAATTC	641
GAATGAAGAGACCAGCATCAGAATTTTCATCATTAG	517
TGTACGAAGCTATATGGTGGTGTTATAGTAGTTAGG	532
CTAAGAACTATAAATCACATGTGCTGTCAAGAGTTC	2690
TGTACGAAGCTATATCAGGTGAGTATAGTAGTTAGG	794
GAAGGGACGATAACCATCAGCAGGAAAAACGGTTAG	522
GAAGCTATCGACACCCGCATGACAGAATCTTAATAG	614
GAACTGAACTTGTTTCATGAGACTCATATCCAGTAG	540
CTACCAATCGCATGGGTGGTGGTGGATGTTGTCTTC	516
GAAGAGGAAATATCAGGTGTGCCAATACGTTAATAG	650
GAATGTAACCTACATCATGCGTAGGCTTAATATTAG	522
GAAAAATAATACATTCACCACGCTTGTTAAAAATAG	523
GAAGACATTGTAAGAAACGTGACTTTTCAAATATAG	2500
CTATAGAAGGAAAAGCACATGGTACCCAGGCAGTTC	656
GAAAAAGAGATGCGCGGCGTGCCTGCGCGGCGGTAG	484
GAAGTAGAAGGTCATCACGAATATTAATTTTGTTAG	559
CTAAGAAATCTGCTGCACATGCCACACGCAGTATTC	699

Sample 2 — method: RNA Bind-n-Seq; form: RNA; matrix: in vitro; tested at: 365 nM; baseline: no-protein control; direction: higher = stronger binding
Target: RNA binding protein fox-1 homolog 2, RRM domain, GST-SBP tag (RBFOX2, Homo sapiens, UniProt O43251-10, residues 100-194)
Notes: natural RNA segment, single round, ends assumed
Shared flanks, not repeated: GGGAGUUCUACAGUCCGACGAUC … UGGAAUUCUCGGGUGCCAA
Construct (chain): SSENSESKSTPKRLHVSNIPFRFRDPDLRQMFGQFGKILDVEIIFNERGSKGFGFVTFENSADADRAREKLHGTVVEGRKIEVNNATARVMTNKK
Sequence	RBNS enrichment (R)
GCAAAUUAUUCUUUUUCCAGAAUUUCCCCCAAACAACUUAGAAUUCCAUAAGUAGAACAAGAUAGAUUCUACCCCCAAAAUAUUCAUAAGCAAAUCCCACUGCCCUUAAA	1.01
UAGCUUUGUGCCUGGACCCAGAGAGUGUGGGACUCCCCGCUUCAUCCCCACCGUCCCACUCCACAGCCUUCCCGAAACAUUCCCUGGCAAACAAAGGAACACUAGGAGAA	0.431
CUGCUCCUCAGUAGCAGGGCCUGGCCAGGCCCCUGCUGUUCUCAGCCUCAGUUUGCCAUCUAUGAAAUGAGGUGGACCCCUCUCCAUAGCCCUUGGGUGCCAGCUCAGUG	0.223
CUUUUCCCUGAGAUGGGGGCUCAGAGGGGGAAGGCCUGUGGCCUGCAUGCUUCCCGAUGGCCCACGGCAGGAGGUGUGUGGAAGUGUAAGGCCUAAGAUGCUCACAGAGG	27.6
ACUAAGGAUAUUCUUUAGCAAGAGAAAAUAUUUUCCCCUUAUCCCCACUGCUGUGGAGGUUUCUGUACCUCGCUUGGAUGCCUGUAAGGAUCCCGGGAGCCUUGCCGCAC	0.318
CCCGCCUCUUGUAAUGCUCUGGUGGGUUCUUGUUUGGGAAUGCGAUAUUUUGUGGCUGGUUUAGCUAGAGAGUGAACUCUCAAAGGUAUCAAAACUGUGCUUCCAUUAUU	1.46
UGCUGGUUCCAUGCCUGCUCUCGAGGCAGCAGUGGGUUCAGGCCCAUCAGCUACCCCUGCAGCUGGGGAAGACUUAUGCCAUCCCGGCAGCGAGGCUGGGCUGGCCAGCC	0.266
UGGCUGGGGAGACCUCAUACCCCAUCGCCCACCCCCGUCCUCCUGGUCAUUUCCUCCCAGACACUGUUUUGCCCCAGCGCCCUUCGGAAUCACAGUCCCGCCGUGUCUUA	0.609

Sample 3 — method: universal PBM; form: double-stranded DNA, one strand shown; matrix: in vitro; tested at: not given; direction: higher = stronger binding
Target: Sal-like protein 4, full length isoform B (SALL4, Homo sapiens, UniProt Q9UJQ4-2, residues 1-616)
Notes: 8-mer, flanks averaged, mean of replicates
Sequence	E-score
CCCACGGG	-0.339
TAGGGATA	0.158
ATGCGACC	-0.0178
GAACTCAA	-0.0729
GTTTAAAC	0.238
ATCGCTGC	-0.203
CCGCTGAC	-0.245
GAGGACGA	-0.189
AATGAATG	0.261
GTCAAGTA	0.00746
GCGTAAGA	0.0393
ATTTCACG	0.0941
AAGCTATC	0.11
CCTCCACC	-0.198
GGGGACAA	-0.178
AGTTTCAT	0.247
CAGCGTCA	-0.194
AGCCCTCA	-0.138
AAAACTGC	0.00601
ACGATAAC	0.122

Sample 4 — method: protein binding microarray; form: double-stranded DNA, one strand shown; matrix: in vitro; tested at: not given; baseline: not given; direction: higher = stronger binding
Target: Histone acetyltransferase KAT6A, winged helix 1, GST fusion (KAT6A, Homo sapiens, UniProt Q92794, residues 1-85)
Notes: 8-mer, flanks averaged, mean of 2 arrays, mostly near background
Residues (chain): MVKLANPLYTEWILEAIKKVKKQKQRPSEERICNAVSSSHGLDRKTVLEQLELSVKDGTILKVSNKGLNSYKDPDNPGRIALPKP
Sequence	E-score
GTTGTTTA	-0.19
AATGCTCA	-0.265
AGGTTGCG	-0.0475
CCCTATAA	-0.243
ACTAGATC	-0.197
CGAGGTTA	0.0702
GGCACATA	0.107
CTCGTGAC	-0.188
GAACCATA	-0.208
TTATCCAA	-0.194
AGTGGGTA	-0.0969
AGCGGTAT	0.289
GGTTTGAC	0.133
GCAATGCA	-0.0634
ACTCTGGC	-0.115
CAAATACG	-0.0638
GTTCGTCA	-0.0178

Sample 5 — method: EMSA with sequencing; form: double-stranded DNA, one strand shown; matrix: in vitro; tested at: 10 and 20 nM; baseline: negative control set to 0; direction: higher = stronger binding
Target: Hepatocyte nuclear factor 3-alpha (Foxa1, Mus musculus, UniProt P35582, residues 1-468, full length assumed)
Notes: whole designed probe, mean of two concentrations, ends assumed
Shared flanks, not repeated: GTGAGCGGTGCCCATTGATGGGGAAC … TTTCACTGGGATCGTGGGGAC
Target sequence (chain): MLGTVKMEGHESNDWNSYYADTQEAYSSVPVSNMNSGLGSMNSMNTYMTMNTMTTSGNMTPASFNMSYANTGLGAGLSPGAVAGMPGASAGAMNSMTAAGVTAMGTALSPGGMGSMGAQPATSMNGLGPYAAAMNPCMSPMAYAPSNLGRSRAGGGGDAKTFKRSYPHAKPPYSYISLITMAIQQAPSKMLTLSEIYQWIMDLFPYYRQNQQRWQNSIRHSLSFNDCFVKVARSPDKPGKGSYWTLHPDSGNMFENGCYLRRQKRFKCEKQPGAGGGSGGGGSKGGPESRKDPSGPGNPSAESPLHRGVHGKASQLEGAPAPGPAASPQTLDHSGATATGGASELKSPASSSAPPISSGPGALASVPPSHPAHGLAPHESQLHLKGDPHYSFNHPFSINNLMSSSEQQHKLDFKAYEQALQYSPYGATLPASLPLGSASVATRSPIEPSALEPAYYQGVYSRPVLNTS
Sequence	normalised bound fraction [ratio]
CAGTATTTTTCTTTTTACATTAATATTCCCTTAAAAACATTACCTGGAATGATCCTCTGTGCATGGAGAAGTACACATTCTGCAATGATAAGTGTAAACAAAACTGAACATTTTATTTCTCCCTTTTTGCTATTCTCTGACCTGCAGTGCATTCCAATACTTTCTGCTTTCAGTTAACACGCAGTTCTTTATT	0.338
GTAGGCCTCTGCTGGTCCTGTCAACTCGTCCTGGCGGCACAGAAGCTGCCAACGGTACGTCAGTGAGTTACCTTGGCCGTGTTCCAGTGAAACTGTTTACACAGGCAGGACGAAGTGACTGTGGTGATGGTTGCGTAACTCTGTGAACACACTGGAAACCATTGAATGTGTGTACTTGATCTGAATTGCGTGG	0.389
CACGTGCACAAACCCATATGCCTTACAGAGTCAAGGGCTGTGATGAGGGTCCCCACCCTTGCACACTTCTCTGTCCTCTGTCTGGGCTCAGAGTAATCTGGGGGTCACCTGGAATCCAGGTCTAAGCTGGGCTTGGAGGTGTCCTAATGAAGCAGGATGCTGACATGCACTTCCCCAGGTCAGCTGGGGCTGT	-0.0851
GGCTCCAAACGGCTGAATCAGCATTTTCAGAAACAAAGTGTTCTAGGCCTGGCCTTTTAAACAGCAGCAACGTTGTGCAATGAGCAAAACGCATATTTACTCACGAGCTCTCCTTGTTTTGGTCTTTCCCCCCTCCCCCCCATCTCTTGAATGAAACTGGGCACCAAGTTTGCAAGAAAATATTCTTTCAAAC	0.122
ACTGGGATGAGAGGCCAGGTAGAAACTTCAGGAGCATTCCACTTTGAAGTGTGAGGCTCTACCAGACACAAAATAAATATAACTGGGGGCCAGAATAAACATCCAGGGCCAGCAAGTGAACCTGGCTTACGTGGCATGCATTAATATTTGGAGAAATTTCCCCAGCGAGGTTGCAGGAAGCTGAGTCACCTAC	0.356
